Assay results collected from several papers.
Lines come from different studies, so protocols differ. Several values in a cell are separate wells, animals, samples, runs or records. ± gives the spread as reported.

Structure (SMILES) | tested on | assay | system | setting | scale | measurement | result
COc1c(N2C[C@@H]3CCCN[C@@H]3C2)c(F)cc2c(=O)c(C(=O)O)cn(C3CC3)c12 | – | – | healthy volunteers | oral, 400 mg single dose, day 5, 24.00 h | – | QTcI change from baseline | 2.1 ms
O=C(Nc1nc2cccc(-c3ccc(CN4CCS(=O)(=O)CC4)cc3)n2n1)C1CC1 | – | measured: investigations | human rheumatoid arthritis patients | oral, 150 mg once daily, 4 weeks, regardless of relatedness | – | treatment-emergent adverse events | 0%
CCOc1c([C@H](C)n2nc(C)c3c(N)ncnc32)cc(Cl)c(F)c1[C@@H]1CNC(=O)C1 | – | measured: ΔQTcF ≤ 30 ms | previously treated B-cell malignancy | oral, 30 mg once daily, baseline QTcF ≤450 ms | – | share of patients | 100%
Cn1cc(Nc2nccc(-c3ccc4c(c3)CN(C3COC3)CC[C@H]4NC(=O)c3cn(C(C)(C)C)nn3)n2)cn1 | – | – | human, whole blood | 300 mg twice daily, day 7 | reference: pre-dose baseline | naive B cell count change | 87.1%
O=C(CCC(C(=O)[O-])N1CCN(C(CCC(=O)NCC(O)CO)C(=O)[O-])Cc2cccc(n2)CN(C(CCC(=O)NCC(O)CO)C(=O)[O-])CC1)NCC(O)CO.[Gd+3] (stereo not shown) | – | LA-ICP-MS | rat, femur subcortical bone | 0.6 mmol Gd/kg, 1 week | – | maximum Gd concentration | ~80 nmol/g and 80 nmol/g
O=C(c1cccnc1-c1ccncc1)N1CCC(O)(Cc2ccccc2)CC1 | – | – | healthy Japanese adults, plasma | oral, 1200 mg single dose | – | Vz/F | 769 L
COc1c(O)c(C)cc2c1C(=O)c1c(O)cccc1C2=O | HK-2 co-cultured with HepaRG | MTT | – | 266.67 µM, 24 h | reference: untreated control | viability | 62.1 ± 13.9%
CC(C)(C(=O)N1CCOc2c(C#N)cncc2C1)C(F)F | – | measured: medical device site dermatitis | healthy humans, both sexes | oral, 20 mg single dose | – | subjects with TEAE | 0%
NC(=O)N1c2ccccc2C=Cc2ccccc21 | – | measured: blood and lymphatic disorders (SOC) | human male | oral, dose not given, CTCAE on-treatment AEs | – | adverse events incidence | 7%
FC(F)(F)c1ccc(CNc2ccc(Cc3c[nH]c4ncc(Cl)cc34)cn2)cn1 | – | measured: Hypophosphataemia | patients with advanced solid tumours | oral, dose not given, grade 3 and 4, possibly related to drug | – | adverse event incidence | 9%
NC1(C(=O)N[C@@H](CCO)c2ccc(Cl)cc2)CCN(c2nc[nH]c3nccc2-3)CC1 | – | – | metastatic CRPC patients | 400 mg b.i.d., any grade, treatment-related, with: enzalutamide 160 mg daily | – | incidence of Erythema | 0%
C[C@@H](Nc1cc(F)cc(F)c1)c1cc(C(=O)N(C)C)cc2c(=O)cc(N3CCOCC3)oc12 | – | – | patients with advanced solid tumours | oral, 240 mg twice daily, monotherapy dose-finding, 2:5 schedule | – | share of patients with dose interruption | 25%
C[C@H]1CN(C(=O)CC#N)[C@]12CCN(c1ncnc3[nH]ccc13)C2 | – | – | healthy human | oral, 12 mg single | – | subjects with Fatigue | 0%
Cc1cc(-c2nccc3c2ccn3CC(=O)Nc2ccc(-c3cnccn3)cn2)ccn1 | – | – | human | 5 mg once daily, multiple ascending dose | – | subjects with Epistaxis adverse event | 0%
N#Cc1ccc2c(c1)[C@H]1CCCN(C(=O)c3ccc4[nH]cnc4c3)[C@H]1C2 | – | – | human, male | 10 mg, day 15 | – | androstenedione level | 6.3 nmol/L
COc1c(O[C@@H]2O[C@H](CO)[C@@H](O)[C@H](O)[C@H]2O)c(C)cc2c1C(=O)c1c(O)cccc1C2=O | HK-2 co-cultured with HepaRG | MTT | – | 33.33 µM, 48 h | reference: untreated control | cell viability | 92.7 ± 1.47%
CCCC[C@@H]1NC(=O)[C@H]([C@@H](C)CC)NC(=O)[C@@](C)(NC(=O)CNC(=O)[C@@H](NC(=O)[C@H](Cc2ccccc2)NC(=O)[C@H](C)NC(=O)[C@H](CCCCN)NC(=O)CNC(=O)[C@H](Cc2ccccc2)NC(=O)[C@H](CCCCN)NC(=O)[C@H](CCCCN)NC(=O)[C@H](C)NC(=O)[C@H](CO)NC(=O)[C@H](Cc2c[nH]cn2)NC(=O)[C@H](CC(C)C)NC(=O)[C@H](Cc2ccccc2)NC(=O)[C@H](CCCCN)NC(=O)CNC(=O)[C@@H](NC(=O)CN)[C@@H](C)CC)C(C)C)CCCC=CCCC[C@@](C)(C(N)=O)NC(=O)[C@H](CC(N)=O)NC1=O | – | HPLC C18 column | – | – | – | retention time | 13.1 min
NC(=O)c1[nH]cnc1N | – | – | leiomyosarcoma patients, plasma | intravenous, dose not given, cycle 2 day 1, with: dacarbazine staggered | reference: cycle 1 day 1 | AUC(0-24h) increase | 58.6%
CCOCc1nc(O)c(-c2nnc(Cc3ccc(Cl)cn3)o2)c(O)c1-c1c(OC)cccc1OC | – | – | rat, plasma | subcutaneous infusion, 3 mg/kg/day, day 7 after surgery | – | plasma concentration | 1830 nM

A few entries again:
Structure (SMILES) | tested on | assay | system | setting | scale | measurement | result
CCCC[C@@H]1NC(=O)[C@H]([C@@H](C)CC)NC(=O)[C@@](C)(NC(=O)CNC(=O)[C@@H](NC(=O)[C@H](Cc2ccccc2)NC(=O)[C@H](C)NC(=O)[C@H](CCCCN)NC(=O)CNC(=O)[C@H](Cc2ccccc2)NC(=O)[C@H](CCCCN)NC(=O)[C@H](CCCCN)NC(=O)[C@H](C)NC(=O)[C@H](CO)NC(=O)[C@H](Cc2c[nH]cn2)NC(=O)[C@H](CC(C)C)NC(=O)[C@H](Cc2ccccc2)NC(=O)[C@H](CCCCN)NC(=O)CNC(=O)[C@@H](NC(=O)CN)[C@@H](C)CC)C(C)C)CCCC=CCCC[C@@](C)(C(N)=O)NC(=O)[C@H](CC(N)=O)NC1=O | – | HPLC C18 column | – | – | – | retention time | 13.1 min
